Assay results from different studies.
Each numbered part is a random draw from the data of one study; scales do not carry over between parts. Substitutions count along the parent as printed.

Study 1 — method: protein-binding microarray; form: double-stranded DNA, one strand shown; matrix: in vitro; tested at: 2200 nM top; notes: 60-bp whole probe; with: salmon DNA 0.4 mg/ml; baseline: random background probes; reading: higher = stronger binding; all sequences stand within: GCCTAGCAC … GTCTTGATTCGCTTGACGCTGCTG
Target: Interferon regulatory factor 7, full length, phosphomimetic (IRF7, Homo sapiens, UniProt Q92985, residues 1-503, S471D/S472D/S475D/S476D/S477D/S483D/S484D/S487D)
Residues (chain): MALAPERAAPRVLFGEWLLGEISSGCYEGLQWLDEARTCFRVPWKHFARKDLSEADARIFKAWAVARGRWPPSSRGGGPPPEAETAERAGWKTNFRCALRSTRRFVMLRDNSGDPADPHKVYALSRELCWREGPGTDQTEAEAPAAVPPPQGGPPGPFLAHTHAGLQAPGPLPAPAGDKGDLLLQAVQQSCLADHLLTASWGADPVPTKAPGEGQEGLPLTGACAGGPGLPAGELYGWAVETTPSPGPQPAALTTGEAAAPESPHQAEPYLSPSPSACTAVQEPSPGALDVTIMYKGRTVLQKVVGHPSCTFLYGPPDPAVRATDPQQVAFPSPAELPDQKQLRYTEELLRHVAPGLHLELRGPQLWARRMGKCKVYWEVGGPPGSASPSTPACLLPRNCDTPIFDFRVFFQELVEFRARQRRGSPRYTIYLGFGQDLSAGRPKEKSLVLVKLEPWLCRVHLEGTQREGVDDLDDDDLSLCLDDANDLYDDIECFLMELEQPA
| Strand | fitted relative affinity |
| --- | --- |
| TCAGGACTGCTTATCCTTTAGTGCTAG | 0.556 z-score |
| TCACTTTCTGTTTTCTCACTGTGCTAG | 11.9 z-score |
| TTAGGACTGGCGTTTCGGTTAGTGCTA | 1.39 z-score |
| AGAGAATGTGGAGAAATAGGGTGCTAG | -0.862 z-score |
| GACGGACTGCTTATCCGGACGTGCTAG | 0.0819 z-score |
| TTAGGGTTCGGTATCGGTTAGTGCTAG | 1.1 z-score |
| GACGAACTGGGGACTGAAGACGTGCTA | -0.0646 z-score |

Study 2 — method: universal PBM; form: double-stranded DNA, one strand shown; matrix: in vitro; tested at: 600 nM; reading: higher = stronger binding
Target: Sal-like protein 4, full length isoform A (SALL4, Homo sapiens, UniProt Q9UJQ4, residues 1-1053)
UniProt Q9UJQ4, sequence (whole entry, looked up): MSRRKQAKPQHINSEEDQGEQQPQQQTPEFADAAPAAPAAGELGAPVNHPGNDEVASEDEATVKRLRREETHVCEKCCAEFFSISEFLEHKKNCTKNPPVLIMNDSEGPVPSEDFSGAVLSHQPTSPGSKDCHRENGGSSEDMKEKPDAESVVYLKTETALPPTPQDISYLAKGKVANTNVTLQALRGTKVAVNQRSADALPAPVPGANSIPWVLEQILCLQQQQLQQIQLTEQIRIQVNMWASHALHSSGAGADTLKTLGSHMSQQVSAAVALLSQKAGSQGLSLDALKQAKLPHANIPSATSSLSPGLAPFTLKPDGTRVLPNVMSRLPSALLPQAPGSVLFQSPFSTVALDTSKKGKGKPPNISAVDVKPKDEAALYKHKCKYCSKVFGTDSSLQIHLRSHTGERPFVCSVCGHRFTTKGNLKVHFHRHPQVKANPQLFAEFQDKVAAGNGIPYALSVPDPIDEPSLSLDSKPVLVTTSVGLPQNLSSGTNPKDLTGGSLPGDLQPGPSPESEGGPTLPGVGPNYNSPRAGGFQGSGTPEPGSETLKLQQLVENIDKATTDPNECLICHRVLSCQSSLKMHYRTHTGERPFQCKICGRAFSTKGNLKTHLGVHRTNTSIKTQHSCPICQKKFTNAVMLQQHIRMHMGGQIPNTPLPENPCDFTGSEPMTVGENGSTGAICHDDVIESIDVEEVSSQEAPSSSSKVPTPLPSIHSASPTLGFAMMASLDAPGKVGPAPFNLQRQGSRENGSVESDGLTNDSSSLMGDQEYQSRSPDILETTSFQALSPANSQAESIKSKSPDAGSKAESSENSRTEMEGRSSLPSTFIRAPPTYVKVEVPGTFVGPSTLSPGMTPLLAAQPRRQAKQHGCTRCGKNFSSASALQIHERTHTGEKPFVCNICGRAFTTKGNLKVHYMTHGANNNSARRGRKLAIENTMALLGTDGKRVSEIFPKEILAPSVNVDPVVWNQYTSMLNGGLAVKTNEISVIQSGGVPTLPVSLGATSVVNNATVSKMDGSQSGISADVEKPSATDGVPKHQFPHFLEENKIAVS
Notes: 8-mer, flanks averaged, mean of replicates
| Strand | E-score |
| --- | --- |
| ACCGAATA | 0.189 |
| AGGTGGAA | 0.0788 |
| AAACTGCC | -0.0679 |
| GCAGGGCC | -0.366 |
| GTAGCGCA | -0.146 |
| AATGAGAA | 0.15 |

Study 3 — target: CCNB3, cyclin fold, Cln2 fusion (human); method: yeast growth competition, sequencing; matrix: yeast; notes: strong parent motif; baseline: not given; reading: higher = stronger binding
Starting sequence: BRCA2 docking peptide (human); PSIKRNLLNEFDR
| Substitution | normalised enrichment score |
| --- | --- |
| PLIKRNLLNEFDR [S2L] | 1.85 |
| PSIKRNLDNEFDR [L8D] | -0.166 |
| PSIKRNLLNYFDR [E10Y] | 0.795 |
| PSIKRNLNNEFDR [L8N] | 0.64 |

Single results of other studies
| Substance | target | test | system | setting | scale | quantity | value |
| --- | --- | --- | --- | --- | --- | --- | --- |
| PhoQ, residues 284 288 289 292 302 303 AANNSF | PhoP, residues 12 14 15 18 19 LHSVQ (Escherichia coli, UniProt P23836) | Sort-seq, item: YFP reporter | E. coli | PhoQ-PhoP variant library, with: 10 µM Mg2+ | baseline: high Mg2+ state, higher = stronger signaling | fold induction | 2.52 |

For quick reference, copied from above (single results of other studies):
| Substance | target | test | system | setting | scale | quantity | value |
| --- | --- | --- | --- | --- | --- | --- | --- |
| PhoQ, residues 284 288 289 292 302 303 AANNSF | PhoP, residues 12 14 15 18 19 LHSVQ (Escherichia coli, UniProt P23836) | Sort-seq, item: YFP reporter | E. coli | PhoQ-PhoP variant library, with: 10 µM Mg2+ | baseline: high Mg2+ state, higher = stronger signaling | fold induction | 2.52 |
